Published values pooled from the literature.
Every numbered part comes from another study and shows a few of its results, in no order.

Study 1
Target: Centromere-binding protein 1, full length, N-terminal tag (CBF1, Saccharomyces cerevisiae, UniProt P17106, residues 1-351)
Sequence of UniProt P17106 (whole entry, looked up): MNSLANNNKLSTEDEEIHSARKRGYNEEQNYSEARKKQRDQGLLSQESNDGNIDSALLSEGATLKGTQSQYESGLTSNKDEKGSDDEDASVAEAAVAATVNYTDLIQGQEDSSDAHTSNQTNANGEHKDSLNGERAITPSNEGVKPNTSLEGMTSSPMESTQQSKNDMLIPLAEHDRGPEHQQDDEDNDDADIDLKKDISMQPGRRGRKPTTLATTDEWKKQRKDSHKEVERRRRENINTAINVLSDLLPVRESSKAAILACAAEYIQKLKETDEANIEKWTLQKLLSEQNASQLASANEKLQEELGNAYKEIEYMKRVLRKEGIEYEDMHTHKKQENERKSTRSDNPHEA
Method: protein-binding microarray
Form: double-stranded DNA, one strand shown
Medium: in vitro
Tested at: 0.8 µM
Notes: whole 60-bp probe, no competitor
Reading: higher = stronger binding
Constant ends, left off below: … GTCTTGATTCGCTTGACGCTGCTG
Oligonucleotide | fluorescence intensity
CTAATCAACAAGGTTGTCATGAGGAGTTACAGATTC | 501 a.u.
GAAAGGTGAGTTCATCATCAGTGATCGGACGTATAG | 517 a.u.
GAATAGTAACGCCGTATCGTGATTAACGTATTATAG | 666 a.u.
GAAATAACACGTCCACGTGGAACTATTAAATTGTAG | 4090 a.u.
CTACATTTGCTTTCCCCCACCAGACATATATAATTC | 590 a.u.
CTAGTCGTTGCGGGCGTGGTGCTGATGTTCTTCTTC | 549 a.u.
TGTACGAAGCTATCTGTCACGTTTATAGTAGTTAGG | 1500 a.u.
CTATTCCTAGGGTGTCATGTGTCTGGCCCAATTTTC | 1080 a.u.
CTAATCTTCATAGTGATCATGAAGTTGTGGGAATTC | 529 a.u.
GAATTTAGTTAATCAGGTGTGAGGTGGAATGAGTAG | 1340 a.u.

Study 2
Target: Sal-like protein 4, full length isoform B (SALL4, Homo sapiens, UniProt Q9UJQ4-2, residues 1-616)
Method: universal PBM
Form: double-stranded DNA, one strand shown
Medium: in vitro
Tested at: not given
Notes: 8-mer, flanks averaged, mean of replicates
Reading: higher = stronger binding
Target sequence (chain): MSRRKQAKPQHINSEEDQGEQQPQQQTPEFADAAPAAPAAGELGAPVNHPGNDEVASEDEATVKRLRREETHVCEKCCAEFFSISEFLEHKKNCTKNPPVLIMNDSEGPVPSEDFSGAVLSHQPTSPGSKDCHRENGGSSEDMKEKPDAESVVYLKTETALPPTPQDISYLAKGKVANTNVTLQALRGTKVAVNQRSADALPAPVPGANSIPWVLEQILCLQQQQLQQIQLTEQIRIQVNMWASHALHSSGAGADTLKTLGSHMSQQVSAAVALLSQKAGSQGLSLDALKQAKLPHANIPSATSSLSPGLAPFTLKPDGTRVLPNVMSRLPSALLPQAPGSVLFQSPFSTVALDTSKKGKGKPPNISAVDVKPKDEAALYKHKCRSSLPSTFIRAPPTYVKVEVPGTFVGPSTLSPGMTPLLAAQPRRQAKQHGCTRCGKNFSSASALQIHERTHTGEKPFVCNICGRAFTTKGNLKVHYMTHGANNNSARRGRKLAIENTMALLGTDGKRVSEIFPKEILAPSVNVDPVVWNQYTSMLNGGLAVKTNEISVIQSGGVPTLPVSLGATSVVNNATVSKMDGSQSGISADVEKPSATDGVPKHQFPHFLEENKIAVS
Oligonucleotide | E-score
CCATCCCA | -0.0024
AAGGAATG | 0.143
GGAGGATA | 0.0618
TGGCCTAA | 0.0424
CGGTCGGC | -0.306
ATGACTCA | 0.0831
GCAGCCAC | -0.209

Study 3
Target: Histone acetyltransferase KAT6A, both winged helices, GST fusion (KAT6A, Homo sapiens, UniProt Q92794, residues 1-181)
Method: protein binding microarray
Form: double-stranded DNA, one strand shown
Medium: in vitro
Tested at: not given
Notes: 8-mer, flanks averaged, mean of 2 arrays, mostly near background
Baseline: not given
Reading: higher = stronger binding
Residues (chain): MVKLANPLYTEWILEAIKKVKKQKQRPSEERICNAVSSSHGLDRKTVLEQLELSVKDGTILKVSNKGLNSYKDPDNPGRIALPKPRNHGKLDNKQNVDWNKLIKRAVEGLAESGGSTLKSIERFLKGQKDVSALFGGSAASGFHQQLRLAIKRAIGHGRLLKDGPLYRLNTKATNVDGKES
Oligonucleotide | E-score
GCAAGGGA | -0.104
CTTATTAA | -0.155
ACTCATCA | -0.151
GCGTCGCA | 0.306
GATGGGCA | -0.164
GGAAGTCC | -0.0128

Other studies, line by line
Molecule | target | assay | test system | setting | how to read | measurement | result
PhoQ, residues 284 288 289 292 302 303 AGHLVA | PhoP, residues 12 14 15 18 19 STWGI (Escherichia coli, UniProt P23836) | Sort-seq, item: YFP reporter | E. coli | PhoQ-PhoP variant library, with: 10 µM Mg2+ | baseline: high Mg2+ state, higher = stronger signaling | fold induction | 2.56

Excerpt of the above (study 2):
Oligonucleotide | E-score
CCATCCCA | -0.0024
AAGGAATG | 0.143
GGAGGATA | 0.0618
